Results pooled from the literature.
“And” joins repeats or separate records; there may be more than shown. ± gives the spread as reported.
NUAK2: NUAK family SNF1-like kinase 2 (NUAK2, Homo sapiens, UniProt Q9H093)
UniProt Q9H093, sequence (whole entry, looked up): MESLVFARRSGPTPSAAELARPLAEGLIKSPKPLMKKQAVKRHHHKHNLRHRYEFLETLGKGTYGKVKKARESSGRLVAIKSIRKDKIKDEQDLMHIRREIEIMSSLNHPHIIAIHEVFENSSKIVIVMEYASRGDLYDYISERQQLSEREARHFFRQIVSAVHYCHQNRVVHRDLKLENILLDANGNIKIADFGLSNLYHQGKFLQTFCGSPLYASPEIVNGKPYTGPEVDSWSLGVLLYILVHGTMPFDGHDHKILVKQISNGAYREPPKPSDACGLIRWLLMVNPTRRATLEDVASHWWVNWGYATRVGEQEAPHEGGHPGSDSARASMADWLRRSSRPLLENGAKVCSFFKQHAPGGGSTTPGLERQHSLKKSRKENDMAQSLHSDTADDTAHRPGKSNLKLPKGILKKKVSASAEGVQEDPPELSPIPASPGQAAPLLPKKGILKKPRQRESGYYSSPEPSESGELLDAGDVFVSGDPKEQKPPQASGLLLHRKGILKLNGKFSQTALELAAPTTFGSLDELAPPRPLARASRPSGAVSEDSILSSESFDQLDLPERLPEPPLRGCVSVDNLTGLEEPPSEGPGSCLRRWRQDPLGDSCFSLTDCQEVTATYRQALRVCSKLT
Uncharacterized hydrolase SAUSA300_2518: Uncharacterized hydrolase SAUSA300_2518 (Staphylococcus aureus, UniProt Q2FDS6)
lasR: Transcriptional activator protein LasR (lasR, Pseudomonas aeruginosa, UniProt P25084)
ZAP70: Tyrosine-protein kinase ZAP-70 (ZAP70, Homo sapiens, UniProt P43403)
UniProt P43403, sequence (whole entry, looked up): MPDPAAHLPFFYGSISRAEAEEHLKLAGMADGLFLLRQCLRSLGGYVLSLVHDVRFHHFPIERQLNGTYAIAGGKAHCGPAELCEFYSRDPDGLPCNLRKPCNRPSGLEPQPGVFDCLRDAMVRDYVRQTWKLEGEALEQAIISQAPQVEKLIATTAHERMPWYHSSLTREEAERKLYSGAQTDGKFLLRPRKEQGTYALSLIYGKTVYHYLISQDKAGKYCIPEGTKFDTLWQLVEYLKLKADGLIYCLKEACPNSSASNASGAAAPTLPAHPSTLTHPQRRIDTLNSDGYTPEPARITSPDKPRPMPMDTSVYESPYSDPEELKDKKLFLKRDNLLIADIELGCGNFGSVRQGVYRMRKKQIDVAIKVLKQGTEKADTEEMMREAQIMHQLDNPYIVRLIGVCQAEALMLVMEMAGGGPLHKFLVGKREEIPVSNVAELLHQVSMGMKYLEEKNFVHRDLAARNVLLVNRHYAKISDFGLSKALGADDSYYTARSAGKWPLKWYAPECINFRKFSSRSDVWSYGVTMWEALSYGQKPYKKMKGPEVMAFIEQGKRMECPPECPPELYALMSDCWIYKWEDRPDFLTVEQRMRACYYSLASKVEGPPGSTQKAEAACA
UniProt P21802, sequence (whole entry, looked up): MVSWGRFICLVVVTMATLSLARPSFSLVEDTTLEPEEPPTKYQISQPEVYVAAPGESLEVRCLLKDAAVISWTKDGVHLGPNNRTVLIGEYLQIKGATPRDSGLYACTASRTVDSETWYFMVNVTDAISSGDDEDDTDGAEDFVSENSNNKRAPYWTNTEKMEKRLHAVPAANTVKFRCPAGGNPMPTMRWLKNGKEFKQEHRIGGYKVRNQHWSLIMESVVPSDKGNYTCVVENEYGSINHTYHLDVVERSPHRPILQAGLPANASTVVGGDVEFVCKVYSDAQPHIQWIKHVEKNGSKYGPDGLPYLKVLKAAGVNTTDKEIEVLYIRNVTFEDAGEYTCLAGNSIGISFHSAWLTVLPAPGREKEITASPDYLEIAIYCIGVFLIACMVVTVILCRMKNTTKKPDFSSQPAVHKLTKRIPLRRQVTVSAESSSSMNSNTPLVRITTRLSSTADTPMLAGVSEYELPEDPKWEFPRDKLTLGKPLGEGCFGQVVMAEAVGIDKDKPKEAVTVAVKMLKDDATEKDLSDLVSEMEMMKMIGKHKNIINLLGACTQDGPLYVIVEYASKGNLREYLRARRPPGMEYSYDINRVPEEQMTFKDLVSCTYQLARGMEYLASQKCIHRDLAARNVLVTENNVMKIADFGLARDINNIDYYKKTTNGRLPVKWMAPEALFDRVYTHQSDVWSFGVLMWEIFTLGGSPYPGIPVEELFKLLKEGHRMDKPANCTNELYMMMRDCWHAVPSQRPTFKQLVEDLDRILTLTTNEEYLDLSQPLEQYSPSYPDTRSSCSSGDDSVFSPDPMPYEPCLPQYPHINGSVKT
UniProt Q16566, sequence (whole entry, looked up): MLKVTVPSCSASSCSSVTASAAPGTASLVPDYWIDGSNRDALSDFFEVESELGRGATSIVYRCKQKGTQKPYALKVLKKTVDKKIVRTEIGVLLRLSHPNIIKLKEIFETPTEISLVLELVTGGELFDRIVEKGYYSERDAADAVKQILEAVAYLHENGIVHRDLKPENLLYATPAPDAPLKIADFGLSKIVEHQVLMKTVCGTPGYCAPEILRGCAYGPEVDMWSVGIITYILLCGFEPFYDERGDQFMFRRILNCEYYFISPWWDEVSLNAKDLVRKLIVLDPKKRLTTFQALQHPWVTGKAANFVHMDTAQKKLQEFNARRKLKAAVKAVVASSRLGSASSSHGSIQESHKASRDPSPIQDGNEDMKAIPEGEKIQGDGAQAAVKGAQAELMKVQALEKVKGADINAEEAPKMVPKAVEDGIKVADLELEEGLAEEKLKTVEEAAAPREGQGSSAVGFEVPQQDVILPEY
UniProt Q08499, sequence (whole entry, looked up): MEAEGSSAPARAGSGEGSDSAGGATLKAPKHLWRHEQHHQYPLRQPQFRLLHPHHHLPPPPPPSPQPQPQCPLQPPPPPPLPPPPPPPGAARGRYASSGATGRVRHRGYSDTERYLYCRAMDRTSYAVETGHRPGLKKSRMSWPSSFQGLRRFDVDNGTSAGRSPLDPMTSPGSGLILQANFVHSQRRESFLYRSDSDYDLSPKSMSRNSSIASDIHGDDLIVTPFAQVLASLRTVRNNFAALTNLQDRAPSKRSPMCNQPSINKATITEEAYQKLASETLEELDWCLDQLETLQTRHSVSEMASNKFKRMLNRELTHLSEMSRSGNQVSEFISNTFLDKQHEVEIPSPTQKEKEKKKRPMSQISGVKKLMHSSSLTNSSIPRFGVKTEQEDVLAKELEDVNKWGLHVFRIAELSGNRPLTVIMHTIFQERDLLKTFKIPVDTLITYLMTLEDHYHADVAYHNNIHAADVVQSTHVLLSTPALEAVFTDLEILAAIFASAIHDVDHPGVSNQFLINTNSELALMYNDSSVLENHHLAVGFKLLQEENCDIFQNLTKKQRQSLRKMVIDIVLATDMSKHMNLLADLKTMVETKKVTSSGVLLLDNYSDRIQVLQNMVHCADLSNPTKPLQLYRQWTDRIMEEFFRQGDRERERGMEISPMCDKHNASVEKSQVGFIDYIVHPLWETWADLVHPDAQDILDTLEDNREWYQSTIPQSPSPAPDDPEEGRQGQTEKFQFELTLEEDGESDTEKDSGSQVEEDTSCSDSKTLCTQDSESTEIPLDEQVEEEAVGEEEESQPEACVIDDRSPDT
UniProt P30988, sequence (whole entry, looked up): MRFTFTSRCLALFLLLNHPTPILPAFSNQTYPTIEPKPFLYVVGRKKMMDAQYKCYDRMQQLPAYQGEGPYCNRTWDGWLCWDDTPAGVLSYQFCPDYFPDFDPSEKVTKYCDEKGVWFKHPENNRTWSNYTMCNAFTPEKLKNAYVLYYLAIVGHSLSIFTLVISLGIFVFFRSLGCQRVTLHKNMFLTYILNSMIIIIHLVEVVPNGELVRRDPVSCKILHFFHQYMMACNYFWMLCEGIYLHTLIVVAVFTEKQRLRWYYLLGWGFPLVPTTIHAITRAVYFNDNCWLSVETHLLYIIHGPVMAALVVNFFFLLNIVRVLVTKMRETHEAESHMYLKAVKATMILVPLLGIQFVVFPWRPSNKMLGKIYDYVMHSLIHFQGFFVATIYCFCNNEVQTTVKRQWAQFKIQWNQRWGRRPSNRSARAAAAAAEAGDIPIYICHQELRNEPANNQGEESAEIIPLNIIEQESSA
UniProt P23141, sequence (whole entry, looked up): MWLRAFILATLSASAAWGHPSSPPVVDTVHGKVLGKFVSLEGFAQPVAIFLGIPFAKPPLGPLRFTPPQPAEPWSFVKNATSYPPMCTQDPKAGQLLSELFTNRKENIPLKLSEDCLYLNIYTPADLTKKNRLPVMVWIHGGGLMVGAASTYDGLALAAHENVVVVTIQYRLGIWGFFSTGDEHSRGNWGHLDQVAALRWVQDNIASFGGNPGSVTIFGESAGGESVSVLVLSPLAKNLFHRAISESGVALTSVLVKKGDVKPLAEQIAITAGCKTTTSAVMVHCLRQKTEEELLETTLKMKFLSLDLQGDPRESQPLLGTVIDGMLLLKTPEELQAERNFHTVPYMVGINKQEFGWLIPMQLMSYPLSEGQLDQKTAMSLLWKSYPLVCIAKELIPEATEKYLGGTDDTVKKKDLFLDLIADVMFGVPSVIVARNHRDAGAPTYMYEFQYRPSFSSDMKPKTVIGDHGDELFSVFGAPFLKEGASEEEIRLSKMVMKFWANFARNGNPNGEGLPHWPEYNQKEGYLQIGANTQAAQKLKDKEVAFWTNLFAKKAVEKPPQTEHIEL
UniProt Q96SB4, sequence (whole entry, looked up): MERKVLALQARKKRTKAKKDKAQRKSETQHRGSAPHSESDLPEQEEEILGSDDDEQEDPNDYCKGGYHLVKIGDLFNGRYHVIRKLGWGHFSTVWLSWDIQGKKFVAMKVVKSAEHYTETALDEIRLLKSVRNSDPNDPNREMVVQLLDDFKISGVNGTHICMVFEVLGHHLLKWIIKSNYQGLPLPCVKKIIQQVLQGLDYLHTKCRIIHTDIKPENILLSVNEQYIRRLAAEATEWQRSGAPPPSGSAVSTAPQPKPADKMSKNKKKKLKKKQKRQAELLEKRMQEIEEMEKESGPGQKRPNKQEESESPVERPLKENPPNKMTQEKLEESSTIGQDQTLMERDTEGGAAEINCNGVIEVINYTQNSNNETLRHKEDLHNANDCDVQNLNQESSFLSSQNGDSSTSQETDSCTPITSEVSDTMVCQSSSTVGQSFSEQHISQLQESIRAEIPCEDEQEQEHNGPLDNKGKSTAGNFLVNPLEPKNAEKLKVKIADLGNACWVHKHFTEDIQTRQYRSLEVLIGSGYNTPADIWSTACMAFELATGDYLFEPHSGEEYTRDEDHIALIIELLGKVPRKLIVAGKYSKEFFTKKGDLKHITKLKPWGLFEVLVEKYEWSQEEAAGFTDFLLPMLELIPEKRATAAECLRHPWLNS

Structure (SMILES)	tested on	assay	system	setting	scale	quantity	value
CCCCCCCCCCCCCCCCCC(=O)NC[C@H]1CC[C@H](C(=O)N[C@@H](CCC(=O)NCCCOCCOCCOCCCNC(=O)COCC(=O)N[C@@H](Cc2ccc(O)cc2)C(=O)NC(C)(Cc2ccccc2)C(=O)N[C@@H](CC(C)C)C(=O)N[C@@H](CCCC)C(=O)N[C@@H](CCCNC(=N)N)C(=O)N2CCC[C@H]2C(=O)N[C@@H](CCCNC(=N)NC)C(=O)N[C@@H](CC(N)=O)C(N)=O)C(=O)O)CC1 (stereo partly drawn)	Amylin receptor AMY2; CALCR/RAMP2 (Homo sapiens, UniProt O60895+P30988)	antagonist, DiscoverX GPCR panel	–	1 µM	–	inhibition	72%
CC(=O)NC[C@@H]1C[C@@H](O)[C@H]2[C@H](O)C[C@@H](CO)N12	β-N-acetylglucosaminidase	enzyme activity, inhibitor, colorimetric	Canavalia ensiformis	300 nM, with: p-nitrophenyl GlcNAc substrate	–	inhibition	55.3% and 60.7%
O=C(CN1CN(c2ccccc2)C2(CCN(C(=O)c3cnc4[nH]ncc4c3)CC2)C1=O)NCC(F)(F)F	NUAK2	inhibitor	–	concentration not given	–	inhibition	< 50%
C=CC(=O)Nc1cc(-c2nn(C3CCC(N4CCN(C(C)=O)CC4)CC3)c3ncnc(N)c23)ccc1Oc1ccccc1 (stereo not drawn)	SRPK1 (Homo sapiens, UniProt Q96SB4)	inhibitor, KiNativ profiling	biochemical	2 µM	–	inhibition	-1.7%
N=C(N)NCCC[C@@H]1NC(=O)[C@H](CCCCNC(=O)CCC(NC(=S)Nc2ccc(CC3CN(CC(=O)O)CCN(CC(=O)O)CCN(CC(=O)O)CCN3CC(=O)O)cc2)C(=O)NCCCC[C@@H]2NC(=O)[C@@H](Cc3ccc(O)cc3)NC(=O)[C@H](CC(=O)O)NC(=O)CNC(=O)[C@H](CCCNC(=N)N)NC2=O)NC(=O)[C@@H](Cc2ccc(O)cc2)NC(=O)[C@H](CC(=O)O)NC(=O)CNC1=O (stereo partly drawn) [scandium-44 labelled]	–	ex vivo γ-counting	female athymic nude mice, U-87 MG xenograft, bone	intravenous, 4 h	–	tissue uptake	0.35 ± 0.24 %ID/g
COc1ccc(F)cc1S(=O)(=O)Nc1cnc2c(c1)C(=O)NCCO2	phosphodiesterase 4	enzyme activity, inhibitor	–	10 µM	–	inhibition	1%
CC12CC(O)C3CC1(OC1OC(CO)C(O)C(O)C1O)C3(COC(=O)c1ccccc1)C(=O)O2 (stereo not drawn)	PDE4D (Homo sapiens, UniProt Q08499)	enzyme activity, inhibitor, radiometric	–	50 µM	–	inhibition	23.1%
Nc1ccc(/C=C/C(=O)N2CCc3c(oc4c(-c5ccc(F)cc5)cc(-c5ccc(C(=O)N6CCC(F)(F)CC6)cn5)cc34)C2)cn1	NUAK2	binding, competition with immobilised ligand	–	1 µM	–	remaining binding	92%
Cc1ccc2c(n1)c(-c1cccc(S(C)(=O)=O)c1)c(C)n2C/C(F)=C/CN	ADRA2A (Homo sapiens, UniProt P08913)	off-target safety screen	–	10 µM	–	inhibition	65%
Cc1nc(C)c(F)c(N2CCC(C3NC(=O)C3(C)C)CC2)n1 (stereo not drawn)	Uncharacterized hydrolase SAUSA300_2518	enzyme activity, inhibitor	–	50 µM	–	inhibition	0.3%
O=C(NCc1cc(Br)cc(Br)c1OC(=O)c1ccccc1[N+](=O)[O-])c1ccccc1Cl	lasR	reporter gene, antagonist	Escherichia coli JLD271	10 µM, pSC11 and pJN105L plasmids, with: OdDHL 2 nM	–	inhibition	-112%
CN(C)[C@H]1C[C@@]23CC[C@@]4(O2)C(=CC[C@]2(C)[C@@H](c5ccc6ccncc6c5)CC[C@H]24)C=C3[C@@H](O)[C@@H]1O	STK3 (Homo sapiens, UniProt Q13188)	ATP probe labelling, inhibitor, KiNativ profiling	–	1 µM	–	inhibition	-3.9%
Cc1ccc(OS(=O)(=O)F)c(C(=O)Nc2ccncc2)c1	Uncharacterized hydrolase SAUSA300_2518	enzyme activity, inhibitor	–	50 µM	–	inhibition	90%
CC(C)CC(C(=O)N1CC2(CC1C#N)C(=O)Nc1ccccc12)N(C)C(=O)c1cc2c(F)cc(F)c(F)c2[nH]1 (stereo not drawn)	Human coronavirus NL63	viral replication	LLC-MK2	12.5 nM	–	inhibition	97.4%
COc1cc(C[C@H](C)[C@H](C)Cc2ccc3c(c2)OCO3)ccc1O	CES1 (Homo sapiens, UniProt P23141)	intracellular hydrolysis, inhibitor, bioluminescence imaging	renal cells	20 µM	–	inhibition	inhibited
CC(C)(C)C(=O)OCOP(=O)(OCOC(=O)C(C)(C)C)C1CCCN(O)C1=O (stereo not drawn)	NCI-H23	–	–	–	–	log TGI	-5.47 log M
CCOC(=O)[C@](CC)(CCCSCCOCCOCCNC(=O)c1ccc(-c2c3ccc(=N)c(S(=O)(=O)O)c-3oc3c(S(=O)(=O)O)c(N)ccc23)c(C(=O)O)c1)NC(=O)c1ccc(C2CC2)c(Cc2ccc(F)cc2)n1	ZAP70	ligand displacement, radioligand	–	10 µM	–	inhibition	35%
O=C1NC(=O)c2c1c1cc(F)c[n+]3c1c1c2c2cc(O)ccc2[n]1[Ru-4]312([N]=C=S)[S+]3CC[S+]1CC[S+]2CC3 (stereo not drawn)	RPS6KA6 (Homo sapiens, UniProt Q9UK32)	enzyme activity	–	100 nM, human enzyme, with: 10 µM ATP	baseline: untreated	remaining activity	3%

Structure (SMILES)	tested on	assay	system	setting	scale	quantity	value
COc1ccccc1-c1n[nH]c2nc(NC3CCN(C(=O)Cc4ccc(F)cc4F)CC3)ncc12	–	bead binding, competition bead pull-down, refers to: LINJ.35.2790	Leishmania donovani extract	10 µM	baseline: vehicle	relative abundance	0.94
CS(C)(=O)=Nc1ccc(-c2ccc(-c3nc4cc(O[C@@H]5CO[C@H]6[C@@H]5OC[C@H]6O)[nH]c4cc3F)cc2)cc1	ZAP70	enzyme activity, inhibitor	–	10 µM	–	inhibition	-1%
CC(C)[C@H]1NC(=O)C[C@H]2/C=C/CCSSC[C@@H](NC1=O)C(=O)N[C@H](Cc1cccc3ccccc13)C(=O)NCC(=O)O2	CAMK4 (Homo sapiens, UniProt Q16566)	enzyme activity, inhibitor	–	10 µM	–	inhibition	-0.346%
CC(C)C[C@H](NC(=O)[C@@H]1O[C@H]1C(=O)O)C(=O)NCCCCNC(=N)N	Ribosomal processing cysteine protease Prp (prp, Staphylococcus aureus, UniProt Q2FXS9, N63Q)	enzyme activity, inhibitor	–	10 µM, prp 21.4 nM, with: FITC peptide substrate 0.5 µM	–	inhibition	12.5 ± 11.1%
Cc1cc(C(=O)Nc2nc3cccc(C)c3n2[C@H]2CCCCN(C(=O)/C=C/CN(C)C)C2)ccn1	Trypanosoma brucei brucei	–	2T1 CLK1 overexpressing	0.1563 µM, compound pretreated	baseline: maximum	survival	197% and 206% and 213% and 208%
CC(C)(C)C1CCC(c2cc3ccccc3s2)(N2CCCCC2)CC1 (stereo not drawn)	Uncharacterized protein (Trypanosoma brucei brucei, UniProt Q386Q8)	enzyme activity, inhibitor, coupled colorimetric	–	30 µM, with: E. coli pyrophosphatase coupling	–	inhibition	23.5%
CCCCCCCCCC(=O)CC(=O)Nc1cccc(OC)c1	lasR	reporter gene, antagonist	Escherichia coli JLD271	10 µM, pSC11 and pJN105L plasmids, with: OdDHL 2 nM	–	inhibition	36%
COc1ccccc1-c1n[nH]c2nc(N[C@H]3CC[C@H](NS(=O)(=O)CC(C)C)CC3)ncc12	–	bead binding, competition bead pull-down, refers to: LINJ.36.2790	Leishmania donovani extract	10 µM	baseline: vehicle	relative abundance	1.32
N[C@H](C(=O)N1CCCC1)C1CCN(c2nccc3c(-c4ncc(Cl)cc4Cl)cccc23)CC1	PDE3B (Homo sapiens, UniProt Q13370)	enzyme activity, inhibitor	–	10 µM	–	inhibition	1%
CC[C@H](C)[C@H](NC(=O)[C@H](CO)NC(=O)[C@H](Cc1ccc(O)cc1)NC(=O)[C@H](Cc1ccc(O)cc1)NC(=O)[C@H](CC(N)=O)NC(=O)CNC(=O)[C@H](CO)NC(=O)[C@H](Cc1ccc(O)cc1)NC(=O)[C@H](CO)NC(=O)[C@H](CO)NC(=O)[C@H](CC(N)=O)NC(=O)COCCOCCNC(=O)CN1CCN(CC(=O)O)CCN(CC(=O)O)CCN(CC(=O)O)CC1)C(=O)N[C@@H](CC(C)C)C(N)=O [copper-64 labelled]	–	dynamic PET	KPC mouse, pancreatic cancer model, blood	intravenous, 27.5 min, 49 days after tamoxifen	–	tumour uptake	3.35 %ID/mL
Cc1nc2cccc(OCC(C)(C)C(=O)NC(C)C)c2c(N)c1C(=O)[O-].[Na+]	Salmonella typhimurium	–	TA100	5.0 mg per plate, with S9, preincubation	–	revertant colonies per plate	125 ± 12
CCN(CC)CCO.O=C(O)C(Cl)Cl	Eleusine indica	–	–	15 mg/mL, 21 days, post-emergence, greenhouse	–	herbicidal inhibition	47%
CN(/N=C/c1ccccc1C(=O)O)c1nc(-c2ccccc2Cl)cs1	FGFR2 (Homo sapiens, UniProt P21802)	kinase activity	–	1 µM, mean	–	inhibition	1.39%
C[C@H](NCc1ccc(-c2ccc(C(F)(F)F)cc2)cc1)C(N)=O	SRPK3 (Homo sapiens, UniProt Q9UPE1)	cell-free assay, competition with immobilised ligand	–	1 µM	–	inhibition	21%
CCCCCCCCCC(=O)CC(=O)Nc1ccccc1O	lasR	reporter gene, antagonist	Pseudomonas aeruginosa PAO-JP2	100 µM, plasI-LVAgfp reporter, with: OdDHL 150 nM	–	inhibition	6%
O=C(O)c1ccccc1/C=N/Nc1nc(-c2ccccc2Cl)cs1	SRM	enzyme activity	–	1 µM	–	inhibition	11.9%
CCCCCCCCCC(=O)CC(=O)Nc1ccccc1	lasR	reporter gene, antagonist	Escherichia coli JLD271	10 µM, pSC11 and pJN105L plasmids, with: OdDHL 2 nM	–	inhibition	-4%
O=C1NC2(CC2)COc2ncc(F)cc2[C@H]2COCCN2c2ccn3ncc1c3n2	–	–	Sprague-Dawley rat, male, serum	oral, 10 mg/kg/day, end of recovery, 4-week subacute toxicity	–	serum urea	4.25 ± 0.54 mmol/L

Excerpt of the above:
Structure (SMILES)	tested on	assay	system	setting	scale	quantity	value
CC(C)(C)C(=O)OCOP(=O)(OCOC(=O)C(C)(C)C)C1CCCN(O)C1=O (stereo not drawn)	NCI-H23	–	–	–	–	log TGI	-5.47 log M
CCOC(=O)[C@](CC)(CCCSCCOCCOCCNC(=O)c1ccc(-c2c3ccc(=N)c(S(=O)(=O)O)c-3oc3c(S(=O)(=O)O)c(N)ccc23)c(C(=O)O)c1)NC(=O)c1ccc(C2CC2)c(Cc2ccc(F)cc2)n1	ZAP70	ligand displacement, radioligand	–	10 µM	–	inhibition	35%
O=C1NC(=O)c2c1c1cc(F)c[n+]3c1c1c2c2cc(O)ccc2[n]1[Ru-4]312([N]=C=S)[S+]3CC[S+]1CC[S+]2CC3 (stereo not drawn)	RPS6KA6 (Homo sapiens, UniProt Q9UK32)	enzyme activity	–	100 nM, human enzyme, with: 10 µM ATP	baseline: untreated	remaining activity	3%
COc1ccccc1-c1n[nH]c2nc(NC3CCN(C(=O)Cc4ccc(F)cc4F)CC3)ncc12	–	bead binding, competition bead pull-down, refers to: LINJ.35.2790	Leishmania donovani extract	10 µM	baseline: vehicle	relative abundance	0.94
CS(C)(=O)=Nc1ccc(-c2ccc(-c3nc4cc(O[C@@H]5CO[C@H]6[C@@H]5OC[C@H]6O)[nH]c4cc3F)cc2)cc1	ZAP70	enzyme activity, inhibitor	–	10 µM	–	inhibition	-1%
